Measured values collected from several papers.
Parts stem from different laboratories: compare values within a part only.

Block 1
Target: Histone acetyltransferase KAT6A, both winged helices, GST fusion (KAT6A, Homo sapiens, UniProt Q92794, residues 1-181)
Method: protein binding microarray
Form: double-stranded DNA, one strand shown
Medium: in vitro
Tested at: not given
Setting: 8-mer, flanks averaged, mean of 2 arrays, mostly near background
Reference: not given
Direction: higher = stronger binding
Construct (chain): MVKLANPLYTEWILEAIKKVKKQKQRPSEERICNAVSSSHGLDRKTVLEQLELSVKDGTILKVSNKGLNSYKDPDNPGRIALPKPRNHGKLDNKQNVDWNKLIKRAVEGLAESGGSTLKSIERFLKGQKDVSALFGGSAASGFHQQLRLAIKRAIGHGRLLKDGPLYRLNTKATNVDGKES
With `ACGGCAAA` the E-score was 0.299.
For `GCCTCCAC`, the E-score was -0.0602.
`GTAAATCA` gave an E-score of -0.0368.

Block 2
Target: Interferon regulatory factor 3, full length, phosphomimetic (IRF3, Homo sapiens, UniProt Q14653, residues 1-427, S386D/S396D/S398D/S402D/T404D/S405D)
Sequence of UniProt Q14653 (whole entry, unmodified, looked up): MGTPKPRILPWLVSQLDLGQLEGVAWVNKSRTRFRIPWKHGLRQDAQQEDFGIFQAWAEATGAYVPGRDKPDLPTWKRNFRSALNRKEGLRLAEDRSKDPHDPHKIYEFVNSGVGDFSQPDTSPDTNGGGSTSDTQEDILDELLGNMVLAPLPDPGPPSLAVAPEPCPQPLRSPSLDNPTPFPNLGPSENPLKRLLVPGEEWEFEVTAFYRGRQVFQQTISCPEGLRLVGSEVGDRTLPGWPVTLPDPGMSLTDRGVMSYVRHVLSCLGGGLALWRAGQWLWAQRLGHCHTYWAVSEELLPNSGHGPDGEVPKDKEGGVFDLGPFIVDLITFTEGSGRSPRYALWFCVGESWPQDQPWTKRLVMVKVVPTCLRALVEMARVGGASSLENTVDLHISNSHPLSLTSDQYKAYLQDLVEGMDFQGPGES
Method: protein-binding microarray
Form: double-stranded DNA, one strand shown
Medium: in vitro
Tested at: 2540 nM top
Setting: 60-bp whole probe
Together with: salmon DNA 0.4 mg/ml
Reference: random background probes
Direction: higher = stronger binding
`GCCTAGCACTCAGATCTCAGTTTCGATTAGTGCTAGGTCTTGATTCGCTTGACGCTGCTG` — result for “fitted relative affinity”: 4.02 z-score.
Under “fitted relative affinity”, `GCCTAGCACTTAGGTATCGGTTTCGCTTAGTGCTAGGTCTTGATTCGCTTGACGCTGCTG` is recorded as 7.15 z-score.
`GCCTAGCACTTATGTCTCGGTCTCGGTTAGTGCTAGGTCTTGATTCGCTTGACGCTGCTG` — result for “fitted relative affinity”: 1.29 z-score.

Block 3
Target: Max-binding protein MNT, bHLH-zipper, MAX partner unstated (MNT, Homo sapiens, UniProt Q99583, residues 220-300)
Method: protein-binding microarray
Form: double-stranded DNA, one strand shown
Medium: in vitro
Tested at: not given
Setting: k-mer, scored over probes, only values ≥0.25
Direction: higher = stronger binding
Target sequence (chain): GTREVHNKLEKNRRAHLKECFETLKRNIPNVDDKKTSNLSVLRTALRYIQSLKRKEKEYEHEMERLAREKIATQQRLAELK
The E-score of `AAAGCATG` is reported as 0.423.
`GTGTGGCA` has an E-score of 0.254.
For `ACATGGTG`, the E-score was 0.333.
`CGACATGC` gave an E-score of 0.346.

Further values, each from its own experiment
The fold induction of `PhoQ, residues 284 288 289 292 302 303 ASTSDA` is reported as 7.97 (PhoP, residues 12 14 15 18 19 LWHVM (Escherichia coli, UniProt P23836); Sort-seq, refers to: YFP reporter; E. coli; PhoQ-PhoP variant library, together with: 10 µM Mg2+; reference: high Mg2+ state, higher = stronger signaling).

Repeated from above (block 2):
`GCCTAGCACTCAGATCTCAGTTTCGATTAGTGCTAGGTCTTGATTCGCTTGACGCTGCTG` — result for “fitted relative affinity”: 4.02 z-score.
